# Experimental data collected from several papers.
# Each line is one published result; not all experiments were run side by side. Several values in a cell are separate wells, animals, samples, runs or records. Numbers after ± are the reported error.
# FURIN: Furin (FURIN, Homo sapiens, UniProt P09958)
# Fructose-1,6-bisphosphate aldolase/phosphatase: Fructose-1,6-bisphosphate aldolase/phosphatase (Helicobacter pylori, UniProt Q9ZMG8)
# Oprk1: Kappa-type opioid receptor (Oprk1, Mus musculus, UniProt P33534)
# TMEM97: Sigma intracellular receptor 2 (TMEM97, Homo sapiens, UniProt Q5BJF2)
Substance,target or system,test,test system,setting,measurement,result
O=S(=O)(NCB(O)O)c1ccc(-c2nn[nH]n2)cc1C(F)(F)F,"ADC-7 beta-lactamase, Acinetobacter baumannii",inhibitor,,"5 min preincubation, pH 7.4, with: nitrocefin 60 µM",Ki,0.00045 µM
CCCCCCCCCCCCC/C=C/[C@@H](O)[C@H](CO)N(C)C,"SPHK2 (Homo sapiens, UniProt Q9NRA0)","enzyme activity, inhibitor, FlashPlate",,,Ki,18 µM
CC(C)C[C@H](N)C(=O)O,"2-isopropylmalate synthase (leuA, Neisseria meningitidis serogroup B, UniProt Q9JZG1)","enzyme activity, noncompetitive inhibitor, DTP-coupled",,"pH 7.5, 25 °C, wild-type enzyme, with: acetyl-CoA varied, α-ketoisovalerate 300 µM",Ki,43 ± 4 µM
CC(C)(C)[C@H](NC(=O)[C@H](CCCNC(=N)N)NC(=O)[C@H](N)CCCNC(=N)N)C(=O)N[C@@H](CCCNC(=N)N)C(=O)NCc1ccc(C(=N)N)cc1,FURIN,"enzyme activity, inhibitor, fluorescence",,,Ki,3.78e-05 µM
OC[C@H]1O[C@@H](n2cnc3c2N=CNC[C@H]3O)[C@H](O)[C@@H]1O,"Fructose-1,6-bisphosphate aldolase/phosphatase",,J99,,Ki,> 10 µM
c1ccc(CCN2CCCCC2)cc1,"DRD3 (Homo sapiens, UniProt P35462)",binding,CHOp,with: [3H]YM-09151-2 0.21 nM,Ki,> 10 µM
CN[C@@](C)(C[18F])C(=O)O,,,"SCID mouse U87 xenograft, brain","30 min, post injection",tissue uptake,0.5 ± 0.1 %ID/g
O=C(/C=C/c1ccoc1)N[C@@H]1CC[C@@]2(O)[C@H]3Cc4ccc(O)c5c4[C@@]2(CCN3CC2CC2)[C@H]1O5,Oprk1,"ligand displacement, radioligand",,,Ki,0.00018 µM
CC1(C)C[C@H]2[C@@H]3CC=C4C[C@@H](OC5CCCCO5)CC[C@]4(C)[C@H]3CC[C@]2(C)[C@H]1O (some centres unmarked),"OSBP (Homo sapiens, UniProt P22059)","ligand displacement, radioligand",,,Ki,0.022 µM
CCC[C@@]1(CCc2ccccc2)CC(O)=C([C@H](CC)c2cccc(NS(=O)(=O)c3ccc(C(F)(F)F)cn3)c2)C(=O)O1,"Gag-Pol polyprotein, protease (Human immunodeficiency virus type 1 group M subtype B, UniProt P03367, C567A/C595A/L533I/L563I/L576V/Q507K)","protease activity, inhibitor",,,Ki,0.0076 ± 0.0003 µM
CN1CCC(c2noc3cc(F)ccc23)CC1,"HTR2A (Homo sapiens, UniProt P28223)","ligand displacement, radioligand",,cell membranes,Ki,0.0123 µM and ~0.012 µM
O=C(O)c1[nH]c(=O)[nH]c(=O)c1F,uracil transporter,"uracil uptake, inhibitor","Trypanosoma brucei brucei, bloodstream form","30 s, with: 0.15 µM [3H]-uracil",Ki,290 ± 40 µM
CO[C@H]1CC=C2CCN3CCC4=C(CC(=O)OC4)[C@]23C1,"Neuronal acetylcholine receptor; alpha4/beta2 (Rattus norvegicus, UniProt P09483+P12390)","ligand displacement, radioligand",,cell membranes,Ki,0.0613 µM
CCCN(CCC)CCc1ccc(OC)c(OCCc2ccccc2)c1,TMEM97,"ligand displacement, radioligand",,,Ki,0.0414 µM
C[C@]1(Cn2ccnn2)[C@H](C(=O)O)N2C(=O)C[C@H]2S1(=O)=O,"ampC (Burkholderia multivorans, UniProt A0A0H3KN52)","enzyme activity, inhibitor",,,Ki,0.6 to 1.1 µM and 0.6 µM
CC(=O)N[C@@H](CC(C)C)C(=O)N[C@@H](CC(C)C)C(=O)N[C@@H](CC(C)C)C(=O)N[C@@H](CC(C)C)C(=O)N[C@@H](CCCNC(=N)N)C(=O)N[C@H](C(=O)N[C@@H](CCCCN)C(=O)NCc1ccc(C(=N)N)cc1)C(C)(C)C,FURIN,"enzyme activity, inhibitor, fluorescence",,,Ki,0.000193 µM
Cc1cc(O)cc(C)c1C[C@H](N)C(=O)N[C@@H]1CCNc2ccc(Cc3cccc4ccccc34)cc21,"Oprd1 (Rattus norvegicus, UniProt P33533)","ligand displacement, radioligand",,cell membranes,Ki,0.006 µM
NC(=O)[C@H](CCC(=O)O)NC(=O)[C@H](CCC(=O)O)NC(=O)[C@H](Cc1cc(-c2ccc(-c3cccc(Cl)c3)cc2)no1)CP(=O)(O)c1ccc(Br)cc1,"MMP12 (Homo sapiens, UniProt P39900)",inhibitor,,with: human serum albumin 5 µM,Ki,0.0022 ± 0.00015 µM
O[C@@H]1CNC=Nc2c1ncn2[C@H]1C[C@H](O)[C@@H](CSc2ccccc2)O1,"Fructose-1,6-bisphosphate aldolase/phosphatase",inhibitor,,"pH 7.0, 25 °C, 77 nM enzyme, with: MTA 400 µM",Ki,0.85 ± 0.2 µM
"NC(CO)(CCc1ccc(Sc2cccc(O)c2)cc1Cl)COP(=O)(O)O (single isomer, unassigned; (+))","S1PR3 (Homo sapiens, UniProt Q99500)","reporter gene, antagonist, NFAT β-lactamase reporter",CHO,with: CYM-5541,Ki,0.00025 µM
CCCCCCCC(=O)O[C@H]1/C(=C/C(=O)OC)C[C@H]2C[C@H]([C@@H](C)O)OC(=O)CCCC(=O)OCC(C)(C)[C@]1(O)O2,"PRKCE (Homo sapiens, UniProt Q02156)","ligand displacement, radioligand",,,Ki,0.498 µM
CC(C)CN(C[C@@H](O)[C@H](Cc1ccccc1)NC(=O)O[C@H]1CO[C@H]2OCC[C@H]21)S(=O)(=O)c1ccc(C(=O)O)cc1,"Gag-Pol polyprotein, protease (gag-pol, Human immunodeficiency virus type 1 group M subtype B, UniProt P04585)","enzyme activity, inhibitor",,,Ki,1.2e-05 µM
O=C(/C=C/c1ccoc1)N[C@@H]1CC[C@@]2(O)[C@H]3Cc4cccc5c4[C@@]2(CCN3CC2CC2)[C@H]1O5,Oprk1,"ligand displacement, radioligand",,,Ki,0.00098 µM
polymyxin B,lipopolysaccharide (Klebsiella pneumoniae ATCC 13883),"binding, displacement",,,Ki,0.5 ± 0.2 µM
CCCCN1C(=O)C(C=CC=CC=C2C(=O)N(c3ccc(S(=O)(=O)O)cc3)N=C2C)C(=O)N(CCCC)C1=O,"SLC4A1 (Homo sapiens, UniProt P02730)","36Cl exchange flux, inhibitor, Dixon plot",human erythrocytes,"0 °C, outward-facing form, initial binding",Ki,0.113 µM and 0.11 µM
O=C(NC(=S)NCCCc1c[nH]cn1)c1ccccc1,"HRH1 (Homo sapiens, UniProt P35367)","ligand displacement, radioligand",,cell membranes,Ki,> 100 µM
O=C(O)C(Cc1nnn[nH]1)[C@@H]1CCN[C@H]1C(=O)O (relative stereo),"NMDA receptor, rat",binding,cortical synaptosomes,with: [3H]-CGP 39653,Ki,0.25 µM
O=S(=O)(O)c1cc(N=C=S)ccc1C=Cc1ccc(N=C=S)cc1S(=O)(=O)O,"folA (Escherichia coli, UniProt P0ABQ4)",inhibitor,,"from IC50, non-competitive",Ki,51 µM
COc1ccc(C(=O)C=Cc2ccc(NC(=O)CN3CCN(C(C)=O)CC3)cc2)cc1OC,"ACHE (Homo sapiens, UniProt P22303)","enzyme activity, inhibitor",,,Ki,0.047 µM
CN(Cc1cnc2nc(N)nc(N)c2n1)c1ccc(C(=O)N[C@@H](CCC(=O)O)C(=O)O)cc1,"Dihydrofolate reductase (Staphylococcus aureus, UniProt C7C2U7)",inhibitor,,,Ki,0.00247 ± 1e-05 µM
C=C[C@H]1CN2CC[C@H]1C[C@H]2[C@H](O)c1ccnc2ccccc12,"SLC6A4 (Homo sapiens, UniProt P31645)","transporter uptake, inhibitor, radiometric",,,Ki,4.2 µM
CC(C)(C)OC(=O)[C@H](CCCCNC(=O)c1ccc(CNC(=N)N)c(I)c1)NC(=O)CCCCCCC(=O)NCCCC[C@H](NC(=O)N[C@@H](CCC(=O)O)C(=O)O)C(=O)O,"FOLH1 (Homo sapiens, UniProt Q04609)","inhibitor, Amplex Red fluorescence",LNCaP cell extract,with: NAAG,Ki,0.00018 µM
CC(C)[C@H](NC(=O)[C@H](CCCNC(=N)N)NC(=O)[C@H](N)CCCNC(=N)N)C(=O)N[C@@H](CCCNC(=N)N)C(=O)NCc1ccc(C(=N)N)cc1,FURIN,"enzyme activity, inhibitor, fluorescence",,,Ki,0.000108 µM
N[C@@H](CC(=O)O)C(=O)O,"pycA (Staphylococcus aureus, UniProt A0A0H3JRU9)","pyruvate carboxylation, allosteric inhibitor, MDH-coupled",,,Ki,18000 ± 1000 µM
O=c1[nH]cnc2c1ncn2[C@@H]1O[C@H](CO)[C@@H](O)[C@H]1O,Trichomonas vaginalis nucleoside transporter,inhibitor,"trophozoites, Trichomonas vaginalis","low-affinity component, with: [3H]-guanosine",Ki,146 ± 26 µM
"CCC(C/C=C/c1ccccc1)(c1ccccc1)N(C)CC1CC1 (single isomer, unassigned; (+))",TMEM97,"ligand displacement, radioligand",,,Ki,0.164 µM
O=C(OP(=O)(O)OC(=O)c1cc2ccccc2s1)c1cc2ccccc2s1,"Beta-lactamase TEM (bla, Escherichia coli, UniProt P62593, Q37K)","enzyme activity, inhibitor",,,Ki,1.47 ± 0.06 µM
CC(C)[C@H](NC(=O)[C@H](CCCNC(=N)N)NC(=O)[C@@H](CCCNC(=N)N)NC(=O)[C@H](N)CCCNC(=N)N)C(=O)N[C@@H](CCCNC(=N)N)C(=O)NCc1ccc(C(=N)N)cc1,FURIN,"enzyme activity, inhibitor, fluorescence",,,Ki,5.1e-05 µM

# Some of these lines once more:
Substance,target or system,test,test system,setting,measurement,result
CC(C)[C@H](NC(=O)[C@H](CCCNC(=N)N)NC(=O)[C@H](N)CCCNC(=N)N)C(=O)N[C@@H](CCCNC(=N)N)C(=O)NCc1ccc(C(=N)N)cc1,FURIN,"enzyme activity, inhibitor, fluorescence",,,Ki,0.000108 µM
"NC(CO)(CCc1ccc(Sc2cccc(O)c2)cc1Cl)COP(=O)(O)O (single isomer, unassigned; (+))","S1PR3 (Homo sapiens, UniProt Q99500)","reporter gene, antagonist, NFAT β-lactamase reporter",CHO,with: CYM-5541,Ki,0.00025 µM
CN1CCC(c2noc3cc(F)ccc23)CC1,"HTR2A (Homo sapiens, UniProt P28223)","ligand displacement, radioligand",,cell membranes,Ki,0.0123 µM and ~0.012 µM
CO[C@H]1CC=C2CCN3CCC4=C(CC(=O)OC4)[C@]23C1,"Neuronal acetylcholine receptor; alpha4/beta2 (Rattus norvegicus, UniProt P09483+P12390)","ligand displacement, radioligand",,cell membranes,Ki,0.0613 µM
O=C(OP(=O)(O)OC(=O)c1cc2ccccc2s1)c1cc2ccccc2s1,"Beta-lactamase TEM (bla, Escherichia coli, UniProt P62593, Q37K)","enzyme activity, inhibitor",,,Ki,1.47 ± 0.06 µM
